Measured values collected from several papers.
Numbered parts are unrelated; each lists some results of a single study. Positions count from the first letter of the parent shown.

Block 1
Sequence: B1 (PRKN RING domain)
Method: yeast two-hybrid
Sample: yeast
Setting: mostly zero background
Reference: not given
Direction: higher = stronger interaction
Quantity: lacZ reporter activity
B1: PRKN RING domain (UniProt O60260); chain LIATNSRNITCITCTDVRSPVLVFQCNSRHVICLDCFHLYCVTRLNDRQFVHDPQLGYSLPCVAGCPNSLIKELHH
UBE2Q1 UBC core domain (UniProt Q7Z7E8): 0
UBE2B UBC core domain (UniProt P63146): 0
UBE2J2 UBC core domain (UniProt Q8N2K1): 0
UBE2T UBC core domain (UniProt Q9NPD8): 0
UBE2J1 UBC core domain (UniProt Q9Y385): 0
UBE2L3 UBC core domain (UniProt P68036): 0
UBE2Z UBC core domain (UniProt Q9H832): 0
UBE2S UBC core domain (UniProt Q16763): 0
UBE2O UBC core domain (UniProt Q9C0C9): 0
UBE2C UBC core domain (UniProt O00762): 0
BIRC6 UBC core domain (UniProt Q9NR09): 0
UBE2E3 UBC core domain (UniProt Q969T4): 0
UBE2I UBC core domain (UniProt P63279): 0
UBE2M UBC core domain (UniProt P61081): 0

Block 2
Target: CCND3, cyclin fold, Cln2 fusion (human)
Method: yeast growth competition, sequencing
Sample: yeast
Setting: weak parent motif
Reference: not given
Direction: higher = stronger binding
Quantity: normalised enrichment score
Parent: E2F1 docking peptide (human); PPVKRRLDFETDH; partner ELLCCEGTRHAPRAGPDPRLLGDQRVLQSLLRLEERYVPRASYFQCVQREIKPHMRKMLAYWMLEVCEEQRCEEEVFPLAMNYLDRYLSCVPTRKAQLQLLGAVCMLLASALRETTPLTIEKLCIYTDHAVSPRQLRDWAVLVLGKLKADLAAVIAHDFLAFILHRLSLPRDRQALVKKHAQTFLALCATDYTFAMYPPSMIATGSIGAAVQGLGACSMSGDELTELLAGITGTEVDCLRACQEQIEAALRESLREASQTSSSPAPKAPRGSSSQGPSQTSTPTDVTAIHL
PPEKRRLDFETDH [V3E]: -0.206
PPVKRCLDFETDH [R6C]: 0.404
PPVKRRLDYETDH [F9Y]: 0.0396
PPVKRWLDFETDH [R6W]: 0.143
PPVKRRLDGETDH [F9G]: 0.0224
PKVKRRLDFETDH [P2K]: 0.421
PPVKPRLDFETDH [R5P]: -0.34
PPVQRRLDFETDH [K4Q]: 0.421
PPPKRRLDFETDH [V3P]: 0.308
PPNKRRLDFETDH [V3N]: -0.209
PPVKRRLDFETHH [D12H]: 0.11
PPQKRRLDFETDH [V3Q]: -0.0134
PPVKNRLDFETDH [R5N]: 0.489
PPVKRRLDFECDH [T11C]: 0.443
PWVKRRLDFETDH [P2W]: -0.104
PPVKRRLLFETDH [D8L]: 0.269
PPVKRRNDFETDH [L7N]: 0.312
PPGKRRLDFETDH [V3G]: 0.375
PPVDRRLDFETDH [K4D]: 0.0476
PPVKRRQDFETDH [L7Q]: 0.147
PPVKRRLDFQTDH [E10Q]: 0.106
PPVKRRLDFEKDH [T11K]: 0.265
PPVKRRLDFLTDH [E10L]: -0.0439
PHVKRRLDFETDH [P2H]: 0.186
PSVKRRLDFETDH [P2S]: 0.229

Block 3
Target: Phosphate system positive regulatory protein PHO4, full length, GST-tagged (PHO4, Saccharomyces cerevisiae, UniProt P07270, residues 1-312)
Method: competition protein-binding microarray
Molecule type: double-stranded DNA, one strand shown
Sample: in vitro
Tested at: 2 µM
Setting: whole 60-bp probe, lowest competitor level
With: Cbf1 competitor, 0.05 µM
Direction: higher = stronger binding
Quantity: fluorescence intensity
Target sequence (chain): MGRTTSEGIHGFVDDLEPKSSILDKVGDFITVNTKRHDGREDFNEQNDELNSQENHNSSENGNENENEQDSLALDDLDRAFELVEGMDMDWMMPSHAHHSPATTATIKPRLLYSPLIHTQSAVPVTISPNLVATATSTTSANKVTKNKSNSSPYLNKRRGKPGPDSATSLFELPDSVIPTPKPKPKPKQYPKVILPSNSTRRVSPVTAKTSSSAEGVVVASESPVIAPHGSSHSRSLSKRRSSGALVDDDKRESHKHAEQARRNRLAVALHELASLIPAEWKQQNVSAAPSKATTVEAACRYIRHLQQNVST
CATACCCAACCTTTTCACGTGTTCTAAGATATTTGTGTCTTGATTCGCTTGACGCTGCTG: 13900 a.u.
GAGCTCTTTGGCGGCAACGTGATGGGCGAGTTGGTTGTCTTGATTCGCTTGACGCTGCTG: 10400 a.u.
AAGATCCGGATCAAGACCGTGATGGCCAGCGCGATAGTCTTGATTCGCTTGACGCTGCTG: 4900 a.u.
ACTCTTGGCCAAAGACCCGTGGTGAAGCCATGAATCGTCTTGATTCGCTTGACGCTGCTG: 8680 a.u.
AATCTCGAGTAGGTGCACGTGGTACCTACCTCGAGAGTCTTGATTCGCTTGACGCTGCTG: 17400 a.u.
CTGTTTTTCACCTTCCACGTGGATTTTTTCGCGTTTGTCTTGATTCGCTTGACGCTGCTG: 15700 a.u.
ATATCTCGCACTTCTCTCGTGATGGTCATTGAGTGCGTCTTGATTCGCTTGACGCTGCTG: 4510 a.u.
CTTTCCCGATCTTGTAGAGTGGGTGTAGCACATTTGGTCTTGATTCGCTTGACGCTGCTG: 4570 a.u.
CTTCTGTAAATTTGGCTCGTGGGTGGACGCGCCCCGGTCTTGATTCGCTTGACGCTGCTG: 8540 a.u.
TTTCTGGTGTCTATGAAGGTGTCTCAACAATCGAACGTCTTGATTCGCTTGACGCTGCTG: 3430 a.u.
CATACCCAACCTTTTCACGTGTGGTAAGATATTTGTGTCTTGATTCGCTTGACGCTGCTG: 13800 a.u.
TGCGCAACAACTTGTTGTGTGGGTGTATGTCTAGAAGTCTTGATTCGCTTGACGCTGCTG: 4680 a.u.
CATACCCAACCTTGTGAAGTGGGTGAAGATATTTGTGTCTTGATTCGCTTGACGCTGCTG: 4050 a.u.
CGGGGTTAAGTTTGTCGCGTGGGTGGCTTGCAGCAGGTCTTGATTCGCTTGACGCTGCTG: 9200 a.u.
GTCGGTTTCATCTTCTCCGTGATGGCTTTGCATCTAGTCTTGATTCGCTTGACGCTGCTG: 3970 a.u.
TCGAGCTGACACTATCACATGCGATTGCGCAATCTTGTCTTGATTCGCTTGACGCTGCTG: 7130 a.u.
GTTGAGCAGCTCTCCTGCGTGCTTTCACAGAGACCCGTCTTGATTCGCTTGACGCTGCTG: 6930 a.u.
AAAGCGGTAATTTGCGACGTGGGTGCAGATATCTATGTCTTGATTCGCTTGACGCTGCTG: 7540 a.u.
GGTAATGACATTCGTCACGTGCTTTAGGGCTTGGTGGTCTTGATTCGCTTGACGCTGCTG: 15800 a.u.
GAACCGATGACGAGGCACATGGGGATAGAACCTCCGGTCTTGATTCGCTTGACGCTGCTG: 12700 a.u.
GTCTTGTCTCATTGGCGAGTGGGTGTCCCCACTTCAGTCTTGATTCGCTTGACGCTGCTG: 5180 a.u.
CATACCCAACCTTTTCACGTGCCCTAAGATATTTGTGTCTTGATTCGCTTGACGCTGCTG: 18700 a.u.
ACCATCTTGACTAACAACGTGTACAACTCTTTTGAAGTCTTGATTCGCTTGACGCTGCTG: 13900 a.u.
GACCTTGAATGCTAGAACGTGGAACATGAATTCCAGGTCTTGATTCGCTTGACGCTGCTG: 10800 a.u.
AGTGCCAGGTAAGTTGTCGTGGGTATCACCCGGAGAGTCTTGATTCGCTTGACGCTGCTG: 4870 a.u.

Block 4
Target: ABI1, truncated, D143A, DHFR fusion (Arabidopsis thaliana, UniProt P49597)
Method: DHFR PCA, dose-response
Sample: yeast
Setting: Hill fit, mean, not affinity
With: (+)-ABA, dose series
Direction: lower = more sensitive
Quantity: ABA EC50
Parent: PYL1, truncated, DHFR fusion (Arabidopsis thaliana, UniProt Q8VZS8); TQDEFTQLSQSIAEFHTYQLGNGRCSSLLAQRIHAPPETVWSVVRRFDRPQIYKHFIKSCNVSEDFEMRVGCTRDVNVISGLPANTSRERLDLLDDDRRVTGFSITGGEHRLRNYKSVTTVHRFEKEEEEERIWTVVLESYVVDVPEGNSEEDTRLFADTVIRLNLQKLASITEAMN
A84E: 522 µM
E127R: 3.16 µM
D3E: 6.66 µM
L164Y: 1.64 µM
A170S: 8.64 µM
C60L: 84.6 µM
V62D: 735 µM
D3M: 8.2 µM
D3H: 4.98 µM
F124Y: 1.89 µM
Q19P: 3.55 µM
I52W: 12.2 µM
R49V: 9.02 µM
L94R: 312 µM
V70K: 12.1 µM
E109T: 4.15 µM
A30S: 1.4 µM
S11I: 2.71 µM
F66E: 5.83 µM
T119C: 4.73 µM
V118R: 2.08 µM
R132K: 1.25 µM
N61C: 2.66 µM
K126T: 1.44 µM

Block 5
Target: JUNB, bZIP domain (human)
Method: DHFR protein complementation
Sample: yeast
Setting: single substitutions, most at no-binding floor
Reference: wild-type JUN-FOS pair
Direction: higher = stronger binding
Quantity: binding fitness
Parent: JUN, bZIP domain (human); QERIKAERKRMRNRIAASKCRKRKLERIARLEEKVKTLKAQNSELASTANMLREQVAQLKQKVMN; partner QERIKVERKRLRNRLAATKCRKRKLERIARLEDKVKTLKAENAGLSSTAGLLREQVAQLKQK
L59C: -1.39 natural log
A57H: -1.18 natural log
K36R: -0.977 natural log
K39N: -1.39 natural log
E54I: -1.26 natural log
M51V: -1.19 natural log
S47E: -0.823 natural log
L52Y: -1.45 natural log
E44P: -1.56 natural log
K36T: -1.34 natural log
V56P: -1.5 natural log
S43K: -0.743 natural log
L45K: -1.42 natural log
N42V: -1.19 natural log
A40Y: -1.36 natural log
E54Q: -1.18 natural log
E54W: -1.46 natural log
V35A: -1.5 natural log
L38D: -1.51 natural log
A46T: -0.96 natural log
L45V: -1.53 natural log
L52H: -1.51 natural log
A49M: -1.25 natural log
K34F: -1.09 natural log
